{"data": "Assay results from different studies", "note": "Numbered parts are unrelated; each lists some results of a single study. Values joined by “and” are separate records of one study, mostly repeats; a detail may differ."}
{"data": "Block 1", "target": "Sal-like protein 4, full length isoform A (SALL4, Homo sapiens, UniProt Q9UJQ4, residues 1-1053)", "technique": "universal PBM", "molecule type": "double-stranded DNA, one strand shown", "medium": "in vitro", "tested at": "600 nM", "setting": "8-mer, flanks averaged, mean of replicates", "reading": "higher = stronger binding", "UniProt Q9UJQ4, sequence (whole entry, looked up)": "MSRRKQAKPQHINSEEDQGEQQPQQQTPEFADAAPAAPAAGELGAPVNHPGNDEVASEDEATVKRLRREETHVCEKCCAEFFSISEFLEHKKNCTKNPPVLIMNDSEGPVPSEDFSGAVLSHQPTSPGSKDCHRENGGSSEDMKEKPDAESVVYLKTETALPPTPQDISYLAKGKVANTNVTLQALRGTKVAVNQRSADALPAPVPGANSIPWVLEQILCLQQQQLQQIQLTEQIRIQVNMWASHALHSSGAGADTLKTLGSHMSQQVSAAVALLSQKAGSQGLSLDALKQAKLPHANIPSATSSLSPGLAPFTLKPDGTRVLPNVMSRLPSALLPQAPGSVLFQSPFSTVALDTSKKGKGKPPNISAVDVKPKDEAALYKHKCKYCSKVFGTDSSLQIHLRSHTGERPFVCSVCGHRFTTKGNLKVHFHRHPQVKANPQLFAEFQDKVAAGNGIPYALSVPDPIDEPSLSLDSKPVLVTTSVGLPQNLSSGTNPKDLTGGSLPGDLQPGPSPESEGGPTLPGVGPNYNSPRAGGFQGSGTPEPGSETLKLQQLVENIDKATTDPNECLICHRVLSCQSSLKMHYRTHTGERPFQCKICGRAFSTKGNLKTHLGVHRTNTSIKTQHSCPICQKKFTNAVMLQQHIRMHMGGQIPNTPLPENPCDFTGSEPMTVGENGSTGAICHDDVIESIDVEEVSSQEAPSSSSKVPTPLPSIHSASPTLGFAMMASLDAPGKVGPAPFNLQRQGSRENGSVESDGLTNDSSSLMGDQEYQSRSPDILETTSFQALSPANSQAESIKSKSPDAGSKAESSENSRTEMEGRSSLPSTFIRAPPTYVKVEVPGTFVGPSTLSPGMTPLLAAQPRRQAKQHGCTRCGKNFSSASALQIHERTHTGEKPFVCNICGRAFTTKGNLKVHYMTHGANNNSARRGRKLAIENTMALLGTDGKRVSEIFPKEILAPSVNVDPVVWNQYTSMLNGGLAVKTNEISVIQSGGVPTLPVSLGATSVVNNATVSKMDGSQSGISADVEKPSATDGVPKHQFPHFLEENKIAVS"}
{"Sequence": "ACGGCCCC", "E-score": -0.364}
{"Sequence": "GACTACGA", "E-score": -0.0743}
{"Sequence": "ATTTACTC", "E-score": 0.158}
{"Sequence": "CCACATTC", "E-score": -0.011}
{"Sequence": "TCTCGGAA", "E-score": -0.12}
{"Sequence": "TAGGGAAA", "E-score": 0.108}
{"Sequence": "GAGCACTA", "E-score": 0.00451}
{"Sequence": "CCGGTCAC", "E-score": -0.29}
{"data": "Block 2", "target": "TAR DNA-binding protein 43, full length, His tag (TARDBP, Homo sapiens, UniProt Q13148, residues 1-414)", "technique": "RNA Bind-n-Seq", "molecule type": "RNA", "medium": "in vitro", "tested at": "20 nM", "setting": "6-mer, flanks averaged, single round", "added": "150 mM KCl", "relative to": "input library", "reading": "higher = stronger binding"}
{"Sequence": "CACAUC", "6-mer enrichment (R)": 0.594}
{"Sequence": "UACGAU", "6-mer enrichment (R)": 0.599}
{"Sequence": "GAAGAA", "6-mer enrichment (R)": 1.02}
{"Sequence": "AAUUUU", "6-mer enrichment (R)": 0.709}
{"Sequence": "AAAACA", "6-mer enrichment (R)": 0.642}
{"Sequence": "UUCUAC", "6-mer enrichment (R)": 0.542}
{"Sequence": "CGCCAG", "6-mer enrichment (R)": 0.903}
{"Sequence": "AUUAGG", "6-mer enrichment (R)": 0.893}
{"data": "Other studies, line by line"}
{"Substance": "PhoQ, residues 284 288 289 292 302 303 SVTLVV", "target": "PhoP, residues 12 14 15 18 19 LWHCS (Escherichia coli, UniProt P23836)", "test": "Sort-seq, item: YFP reporter", "test system": "E. coli", "conditions": "PhoQ-PhoP variant library, added: 10 µM Mg2+", "how to read": "relative to: high Mg2+ state, higher = stronger signaling", "endpoint": "fold induction", "result": "7.33 and 6.58"}
{"Substance": "CCN(CC)CCNC(=O)c1c(C)[nH]c(/C=C2\\C(=O)Nc3ccc(Cl)cc32)c1C", "target": "PRKCG (Homo sapiens, UniProt P05129)", "test": "enzyme activity, inhibitor", "conditions": "0.5 µM", "how to read": "relative to: control", "endpoint": "remaining activity", "result": "101%"}
{"note": "Repeated from above (block 1):"}
{"Sequence": "ATTTACTC", "E-score": 0.158}
